# Measured values gathered from unrelated publications.
# Each line is one published result; not all experiments were run side by side. Several values in a cell are separate wells, animals, samples, runs or records.
# ORC4: ORC4 (Saccharomyces cerevisiae, UniProt P54791)
# ORC2: ORC2 (Saccharomyces cerevisiae, UniProt P32833)
# Histone H3.1: Histone H3.1 (Homo sapiens, UniProt P68431)
# MCM6: MCM6 (Saccharomyces cerevisiae, UniProt P53091)
Molecule,tested on,assay,system,setting,how to read,endpoint,result
"BAIAP3 (Homo sapiens, UniProt O94812)","PHB1 (Homo sapiens, UniProt P35232)",cross-linking MS,,hits only,,interaction screen,cross-linked
"CDC6 (Saccharomyces cerevisiae, UniProt P09119)","ORC6 (Saccharomyces cerevisiae, UniProt P38826)",cross-linking MS,,hits only,,interaction screen,cross-linked
PKRSFIESNV,human MAGI1-3/6 PDZ construct (MBP fusion),automated holdup,"peptide, crude extract","concentration not given, corrected by standard peak, unit not given","baseline: biotin control resin, higher = stronger binding",binding intensity,0.0568
"ORC1 (Saccharomyces cerevisiae, UniProt P54784)",ORC4,cross-linking MS,,hits only,,interaction screen,cross-linked
"MCM5 (Saccharomyces cerevisiae, UniProt P29496)","MCM7 (Saccharomyces cerevisiae, UniProt P38132)",cross-linking MS,,hits only,,interaction screen,cross-linked
"NSE4 (Saccharomyces cerevisiae, UniProt P43124)","SMC5 (Saccharomyces cerevisiae, UniProt Q08204)",cross-linking MS,,hits only,,interaction screen,cross-linked
"MCM3 (Saccharomyces cerevisiae, UniProt P24279)",ORC2,cross-linking MS,,hits only,,interaction screen,cross-linked
GSGAGSETKM,human MAGI1-3/6 PDZ construct (MBP fusion),automated holdup,"peptide, purified PDZ protein","concentration not given, unit not given","baseline: biotin control resin, higher = stronger binding",binding intensity,-0.159
"SLC25A6 (Homo sapiens, UniProt P12236)",Histone H3.1,cross-linking MS,,hits only,,interaction screen,cross-linked
"MCM5 (Saccharomyces cerevisiae, UniProt P29496)",ORC2,cross-linking MS,,hits only,,interaction screen,cross-linked
"NSE5 (Saccharomyces cerevisiae, UniProt Q03718)","NSE1 (Saccharomyces cerevisiae, UniProt Q07913)",cross-linking MS,,hits only,,interaction screen,cross-linked
"H2AX (Homo sapiens, UniProt P16104)",Histone H3.1,cross-linking MS,,hits only,,interaction screen,cross-linked
"MCM3 (Saccharomyces cerevisiae, UniProt P24279)","PSF1 (Saccharomyces cerevisiae, UniProt Q12488)",cross-linking MS,,hits only,,interaction screen,cross-linked
"ORC5 (Saccharomyces cerevisiae, UniProt P50874)",ORC4,cross-linking MS,,hits only,,interaction screen,cross-linked
"PSF2 (Saccharomyces cerevisiae, UniProt P40359)","CDC45 (Saccharomyces cerevisiae, UniProt Q08032)",cross-linking MS,,hits only,,interaction screen,cross-linked
"RPT6 (Saccharomyces cerevisiae, UniProt Q01939)","MLP1 (Saccharomyces cerevisiae, UniProt Q02455)",cross-linking MS,,hits only,,interaction screen,cross-linked
"MCM2 (Saccharomyces cerevisiae, UniProt P29469)",MCM6,cross-linking MS,,hits only,,interaction screen,cross-linked
"MCM2 (Saccharomyces cerevisiae, UniProt P29469)","MCM5 (Saccharomyces cerevisiae, UniProt P29496)",cross-linking MS,,hits only,,interaction screen,cross-linked
"MCM7 (Saccharomyces cerevisiae, UniProt P38132)",MCM6,cross-linking MS,,hits only,,interaction screen,cross-linked
galanin,"rebH (Lentzea aerocolonigenes, UniProt Q8KHZ8, A442V/K145M/M71V/N467T/N470S/S2P)","substrate, HPLC EIC",,,,bromination conversion,21.2% and 21.6%
"H2BC12 (Homo sapiens, UniProt O60814)","H2AC20 (Homo sapiens, UniProt Q16777)",cross-linking MS,,hits only,,interaction screen,cross-linked
"H2BC5 (Homo sapiens, UniProt P58876)","H3-3A (Homo sapiens, UniProt P84243)",cross-linking MS,,hits only,,interaction screen,cross-linked
"Histone H2B type 1-C/E/F/G/I (Homo sapiens, UniProt P62807)",Histone H3.1,cross-linking MS,,hits only,,interaction screen,cross-linked
"H2BC3 (Homo sapiens, UniProt P33778)","H2AC18 (Homo sapiens, UniProt Q6FI13)",cross-linking MS,,hits only,,interaction screen,cross-linked
"KRE29 (Saccharomyces cerevisiae, UniProt P40026)","NSE3 (Saccharomyces cerevisiae, UniProt Q05541)",cross-linking MS,,hits only,,interaction screen,cross-linked

# For quick reference, copied from above:
Molecule,tested on,assay,system,setting,how to read,endpoint,result
"SLC25A6 (Homo sapiens, UniProt P12236)",Histone H3.1,cross-linking MS,,hits only,,interaction screen,cross-linked
"MCM5 (Saccharomyces cerevisiae, UniProt P29496)",ORC2,cross-linking MS,,hits only,,interaction screen,cross-linked
"NSE5 (Saccharomyces cerevisiae, UniProt Q03718)","NSE1 (Saccharomyces cerevisiae, UniProt Q07913)",cross-linking MS,,hits only,,interaction screen,cross-linked
